Experimental data collected from several papers.
Compare with care: the assays were run in different laboratories. ± gives the spread as reported.
Method: steady-state kinetics
B1: protein (Stereum hirsutum, UniProt P9WEW2); chain MAVATSVATPVPTPAYSAGRAPAKEKKIYLPDTLAEWPWPRAINPHYAEAKEESQAWAASFNAFSPKAQHAFNRCDFNLLASLAYPLATKHGCRSGCDLMNLFFVIDEYSDIAPVEEVRQQKDIVMDALRNPHKPRPEGEWVGGEVARQFWALTITNASAQSQKHFIETFDEYLDSVVQQAEDRSESRIRDIQSYIDVRRNTIGAKPSFALLELDMDLPDEVLAHPTIQSLSLATIDMLCLGNDIVSYNLEQARGDASHNIITIVMNELNLDVNGAMRWVGDFHKQLEKQFFEAFNNLPKWGNAELDAQIAVYCDGLGNWVRANDQWSFESERYFGARGLEIMETKTLAMMPIQRTEALGPQLVDDSIL
B2: tsaM1 F253S/H255G/M230N/R216A/S234V/S257H (Comamonas testosteroni, UniProt P94679); chain MFIRNCWYVAAWDTEIPAEGLFHRTLLNEPVLLYRDTQGRVVALENRCCHRSAPLHIGRQEGDCVRCLYHGLKFNPSGACVEIPGQEQIPPKTCIKSYPVVERNRLVWIWMGDPARANPDDIVDYFWHDSPEWRMKPGYIHYQANYKLIVDNLLDFTHLAWVHPTTLGTDSAASLKPVIERDTTGTGKLTITRWYLNDDMSNLHKGVAKFEGKADAWQIYQWSPPALLRNDTGVAPTGTGAPEGRRVPEAVQSRGTHIQTPETETTSHYWFCQARNFDLDDEALTEKIYQGVVVAFEEDRTMIEAHEKILSQVPDRPMVPIAADAGLNQGRWLLDRLLKAENGGTAP
B3: cyc1 F198L (Streptomyces coelicolor, UniProt Q9K499); chain MHAFPHGTTATPTAIAVPPSLRLPVIEAAFPRQLHPYWPKLQETTRTWLLEKRLMPADKVEEYADGLCYTDLMAGYYLGAPDEVLQAIADYSAWFFVWDDRHDRDIVHGRAGAWRRLRGLLHTALDSPGDHLHHEDTLVAGFADSVRRLYAFLPATWNARFARHFHTVIEAYDREFHNRTRGIVPGVEEYLELRRLTLAHWIWTDLLEPSSGCELPDAVRKHPAYRRAALLSQEFAAWYNDLCSLPKEIAGDEVHNLGISLITHHSLTLEEAIGEVRRRVEECITEFLAVERDALRFADELADGTVRGKELSGAVRANVGNMRNWFSSVYWFHHESGRYMVDSWDDRSTPPYVNNEAAGEK
B4: enzyme (Thermobifida fusca, UniProt Q47RA9); chain MIMIMASKSSPHDLPDVSGLSIAVLGGTGDQGRGLARRFAMAGHEVILGSRSAERAQAVAAELGEGLPVRGMDNAGAAEAGDVVIVAVPWDGHRALLESLKDVLAGKIVVDCVNPLGFDKRGAYALPVEEGSAAEQAAAILPDSRVVAAFHHVSAVLLLDPEVEKVDLDVLVLGDDREATDVVRALAARIPGVRGVYGGRLRNAHQVEAFTANLISINRRYKAHAGIRITDI
B5: ycjS (Escherichia coli, UniProt P77503); chain MKSAMTSSPLRVAIIGAGQVADKVHASYYCTRNDLELVAVCDSRLSQAQALAEKYGNASVWDDPQAMLLAVKPDVVSVCSPNRFHYEHTLMALEAGCHVMCEKPPAMTPEQAREMCDTARKLGKVLAYDFHHRFALDTQQLREQVTNGVLGEIYVTTARALRRCGVPGWGVFTNKELQGGGPLIDIGIHMLDAAMYVLGFPAVKSVNAHSFQKIGTQKSCGQFGEWDPATYSVEDSLFGTIEFHNGGILWLETSFALNIREQSIMNVSFCGDKAGATLFPAHIYTDNNGELMTLMQREIADDNRHLRSMEAFINHVQGKPVMIADAEQGYIIQQLVAALYQSAETGTRVEL
B6: enzyme (Triticum aestivum, UniProt A0A6J4BJG4); chain MPATQLPAGEAWDRRRELQAFDDTKAGVKGLVDAGVTALPPIFRHSPESLEGITSSNHVAGAIPTVDLAAPRREDAVALVRHAAGTVGFFQVVNHGVPAELMAGMLEGVRRFNEGPAEAKQAIYSRDQARKVRFASNFDLFSSAAANWRDTLFFHLAPDPAPSEELPEAVRDVVTEYGHAVTKVGLSVLELLSESLGLSSDHLRDMDCAENLNAVCQYYPPCPEPYLTWGTKRHTDPGFLTVLLQDGMGGLQVLVDGKTWVDVPPVPGAFIINIGDLLQLVSNDQFRSVEHRVLANKSKDTARVSVASFFNTNIERSTRLYGPITDGRNPPIYRSVTAREFIATFNRIGLDGRSLDQYRLDRDTPTPAVEGCE
B7: pol D141A/E143A/G245D (Thermococcus kodakarensis, UniProt P77933); chain 1 MILDTDYITEDGKPVIRIFKKENGEFKIEYDRTFEPYFYALLKDDSAIEEVKKITAERHGTVVTVKRVEKVQKKFLGRPVEVWKLYFTHPQDVPAIRDKIREHPAVIDIYEYDIPFAKRYLIDKGLVPMEGDEELKMLAFAIATLYHEGEEFAEGPILMISYADEEGARVITWKNVDLPYVDVVSTEREMIKRFLRVVKEKDPDVLITYNGDNFDFAYLKKRCEKLGINFALGRDGSEPKIQRMDDRFAVEVKGRIHFDLYPVIRRTINLPTYTLEAVYEAVFGQPKEKVYAEEITTAWETGENLERVARYSMEDAKVTYELGKEFLPMEAQLSRLIGQSLWDVSRSSTGNLVEWFLLRKAYERNELAPNKPDEKELARRRQSYEGGYVKEPERGLWENIVYLDFR; chain 2 SLYPSIIITHNVSPDTLNREGCKEYDVAPQVGHRFCKDFPGFIPSLLGDLLEERQKIKKKMKATIDPIERKLLDYRQRAIKILAN; chain 3 NSYYGYYGYARARWYCKECAESVTAWGREYITMTIKEIEEKYGFKVIYSDTDGFFATIPGADAETVKKKAMEFLKYINAKLPGALELEYEGFYKRGFFVTKKKYAVIDEEGKITTRGLEIVRRDWSEIAKETQARVLEALLKDGDVEKAVRIVKEVTEKLSKYEVPPEKLVIHEQITRDLKDYKATGPHVAVAKRLAARGVKIRPGTVISYIVLKGSGRIGDRAIPFDEFDPTKHKYDAEYYIENQVLPAVERILRAFGYRKEDLRYQKTRQVGLSAWLKPKGT
B8: enzyme (Arabidopsis thaliana, UniProt Q9STE6); chain MEKNAEKKRIVLVPFPLQGHITPMMQLGQALNLKGFSITVALGDSNRVSSTQHFPGFQFVTIPETIPLSQHEALGVVEFVVTLNKTSETSFKDCIAHLLLQHGNDIACIIYDELMYFSEATAKDLRIPSVIFTTGSATNHVCSCILSKLNAEKFLIDMKDPEVQNMVVENLHPLKYKDLPTSGMGPLERFLEICAEVVNKRTASAVIINTSSCLESSSLSWLKQELSIPVYPLGPLHITTSANFSLLEEDRSCIEWLNKQKLRSVIYISVGSIAHMETKEVLEMAWGLYNSNQPFLWVIRPGTESMPVEVSKIVSERGCIVKWAPQNEVLVHPAVGGFWSHCGWNSTLESIVEGVPMICRPFNGEQKLNAMYIESVWRVGVLLQGEVERGCVERAVKRLIVDDEGVGMRERALVLKEKLNASVRSGGSSYNALDELVHYLEAEYRNT
B9: GTPBP3 E459K (Homo sapiens, UniProt Q969Y2); chain TRRSSGAPAPGSGATIFALSSGQGRCGIAVIRTSGPASGHALRILTAPRDLPLARHASLRLLSDPRSGEPLDRALVLWFPGPQSFTGEDCVEFHVHGGPAVVSGVLQALGSVPGLRPAEAGEFTRRAFANGKLNLTEVEGLADLIHAETEAQRRQALRQLDGELGHLCRGWAETLTKALAHVEAYIDFGEDDNLEEGVLEQADIEVRALQVALGAHLRDARRGQRLRSGVHVVVTGPPNAGKSSLVNLLSRKPVSIVSPEPGTTRDVLETPVDLAGFPVLLSDTAGLREGVGPVEQEGVRRARERLEQADLILAMLDASDLASPSSCNFLATVVASVGAQSPSDSSQRLLLVLNKSDLLSPEGPGPGPDLPPHLLLSCLTGEGLDGLLEALRKELAAVCGDPSTDPPLLTRARHQHHLQGCLDALGHYKQSKDLALAAKALRVARGHLTRLTGGGGTEEILDIIFQDFCVGK
B10: protein (Rheum palmatum, UniProt A0A7L9A2S6); chain MKKTELVFLPAPAPGHLVSTVEFSKRLIARDARLTVTILVISSPFSRGAQTNPSPGIRYVTLPQVDVPQHLMKDSIEHTISVYIASHAPHVRDAVAALQTESTVHVAGLFLDMFCTPMIDVANELGLPSYVFFCSSAGFLGLLLHLPVHSQPRFDETGLDVLIPSFQNPVPTRVLPRFGFNELGYKSFMDHAKRFGETKGIIINTYAELEPYALKSLLDAYDTAPVYAVGPVLDLRSQVHMPCDAAERARIMGWLDKQPDSSVVFLCFGSGGSFSEHQIREISKGLSQSGQRFLWSVRKPPTGGLVKPTEYTETELRSVLGDEFWSLLDEGERGVVCGWAPQVEVLGHKSVGAFVSHCGWNSTLESLWFGKPMVTWPLYAEQQMNAFELVKELGIAVELTLDYRLHSSEVVEAREVERAVRRVMDENNPVRYKVKEMAEVCRATLVEGGSSFVCVDRLISGFLGEIN
B11: enzyme (Helicobacter pylori, UniProt O24890); chain MKRMLAEFEKIQAILMAFPHEFSDWAYCIKEARESFLNIIQTIAKHAKVLVCVHTNDIIGYETLKNLPGVEIARIDTNDTWARDFGAISVENHGVLECLDFGFNGWGLKYPSNLDNQVNFKLKSLGFLKHPLKTMPYILEGGSIESDGAGSVLTNTQCLLEKNRNPHLNQNGIENMLKKELGAKQVLWYSYGYLKGDDTDSHTDTLARFLDKDTIVYSTCEDENDEHYTALKKMQEELKTFKKLDGTPYKLIPLEIPKAIFDENQQRLPATYVNFLLCNNALIVPTYNDPKDALILETLKQHTPLEVIGVDCNTLIKQHGSLHCVTMQLY

`Ptb (Listeria monocytogenes, UniProt Q8Y7B7)` gave a kcat/Km of 2.72e+06 M⁻¹ s⁻¹ (CCC(=O)SCCNC(=O)CCNC(=O)[C@H](O)C(C)(C)COP(=O)(O)OP(=O)(O)OC[C@H]1O[C@@H](n2cnc3c(N)ncnc32)[C@H](O)[C@@H]1OP(=O)(O)O; pH 7.5, 25 °C, apparent).
With `B1 (protein)` the kcat/Km was 4180 ± 510 M⁻¹ s⁻¹ (CC(C)=CCC/C(C)=C/CC/C(C)=C/CO[P@@](=O)(O)OP(=O)(O)O; pH 8, NaCl 200 mM, added: FPP 1–100 µM).
`alanine aminopeptidase (Neisseria meningitidis, UniProt Q9JYV4)` has a kcat/Km of 51000 ± 7000 M⁻¹ s⁻¹ (NC(=O)Cc1cc(=O)oc2cc(NC(=O)[C@@H](N)Cc3ccc4ccccc4c3)ccc12; pH 7.5, 37 °C).
`B2` gave a kcat/Km of 5100 ± 530 M⁻¹ s⁻¹ (COc1cc(C(=O)O)ccc1O; apparent, added: NADH 1 mM).
`B3 (cyc1 F198L)` gave a kcat/Km of 1100 ± 100 M⁻¹ s⁻¹ (CC(C)=CCC/C(C)=C/CC/C(C)=C/CO[P@@](=O)(O)OP(=O)(O)O; pH 6.5, 30 °C, added: MgCl2 10 mM).
For `B4 (enzyme)`, the kcat/Km was 0.17 ± 0.022 M⁻¹ s⁻¹ (NC(=O)c1ccc[n+](CCCO)c1; pH 8, 25 °C).
`B5 (ycjS)` gave a kcat/Km of 191 ± 9 M⁻¹ s⁻¹ (CO[C@@H]1O[C@H](CO)[C@@H](O)[C@H](O)[C@H]1O; pH 8, 30 °C, added: NAD+ 2.0 mM).
With `B6 (enzyme)` the kcat/Km was 1600 M⁻¹ s⁻¹ (O=C1[C@@H](O[C@@H]2O[C@H](CO)[C@@H](O)[C@H](O)[C@H]2O)Oc2ccccc2N1O; pH 7.2, 30 °C).
`B7 (pol D141A/E143A/G245D)` has a kcat/Km of 760000 ± 100000 M⁻¹ s⁻¹ (Nc1nc2c(ncn2[C@H]2C[C@H](O)[C@@H](COP(=O)(O)OP(=O)(O)OP(=O)(O)O)O2)c(=O)[nH]1; pH 8, 55 °C).
For `B8 (enzyme)`, the kcat/Km was 21300 M⁻¹ s⁻¹ (CC(=O)N[C@H]1[C@@H](OP(=O)(O)OP(=O)(O)OC[C@H]2O[C@@H](n3ccc(=O)[nH]c3=O)[C@H](O)[C@@H]2O)O[C@H](CO)[C@@H](O)[C@@H]1O; pH 7.5, 25 °C).
With `enzyme (Acetivibrio thermocellus, UniProt A3DC45)` the kcat/Km was 4e+06 M⁻¹ s⁻¹ (NC(=O)c1ccc[n+]([C@@H]2O[C@H](COP(=O)(O)OP(=O)(O)OC[C@H]3O[C@@H](n4cnc5c(N)ncnc54)[C@H](OP(=O)(O)O)[C@@H]3O)[C@@H](O)[C@H]2O)c1; pH 8, 25 °C, cofactor varied, per site).
`B9 (GTPBP3 E459K)` gave a kcat/Km of 2340 M⁻¹ s⁻¹ (Nc1nc2c(ncn2[C@@H]2O[C@H](COP(=O)(O)OP(=O)(O)OP(=O)(O)O)[C@@H](O)[C@H]2O)c(=O)[nH]1; pH 8, 37 °C, KCl 300 mM).
The kcat/Km of `enzyme (UniProt A0A7J5BGR1)` is reported as 5400 M⁻¹ s⁻¹ (Oc1ccc2c(c1)CCC2; pH 8, 25 °C).
With `B10 (protein)` the kcat/Km was 10.4 M⁻¹ s⁻¹ (O=c1c(O)c(-c2ccc(O)cc2)oc2cc(O)cc(O)c12; pH 7.5, 35 °C, apparent, added: UDP-glucose).
The kcat/Km of `B11 (enzyme)` is reported as under 0.0377 M⁻¹ s⁻¹ ([H]/N=C(/N)N[C@H]1[C@H](O)[C@@H](O)[C@H](O[C@@H]2O[C@@H](C)[C@](O)(C=O)[C@H]2O[C@@H]2O[C@@H](CO)[C@H](O)[C@@H](O)[C@@H]2NC)[C@@H](N/C(N)=N\[H])[C@@H]1O; pH 8, 37 °C).

Some of these lines once more:
With `B1 (protein)` the kcat/Km was 4180 ± 510 M⁻¹ s⁻¹ (CC(C)=CCC/C(C)=C/CC/C(C)=C/CO[P@@](=O)(O)OP(=O)(O)O; pH 8, NaCl 200 mM, added: FPP 1–100 µM).
`B5 (ycjS)` gave a kcat/Km of 191 ± 9 M⁻¹ s⁻¹ (CO[C@@H]1O[C@H](CO)[C@@H](O)[C@H](O)[C@H]1O; pH 8, 30 °C, added: NAD+ 2.0 mM).
